# Assay results collected from several papers.
# Each numbered part is a random draw from the data of one study; scales do not carry over between parts. Values joined by “and” are separate records of one study, mostly repeats; a detail may differ.
# Sequence of UniProt Q9Y6R4 (whole entry, looked up): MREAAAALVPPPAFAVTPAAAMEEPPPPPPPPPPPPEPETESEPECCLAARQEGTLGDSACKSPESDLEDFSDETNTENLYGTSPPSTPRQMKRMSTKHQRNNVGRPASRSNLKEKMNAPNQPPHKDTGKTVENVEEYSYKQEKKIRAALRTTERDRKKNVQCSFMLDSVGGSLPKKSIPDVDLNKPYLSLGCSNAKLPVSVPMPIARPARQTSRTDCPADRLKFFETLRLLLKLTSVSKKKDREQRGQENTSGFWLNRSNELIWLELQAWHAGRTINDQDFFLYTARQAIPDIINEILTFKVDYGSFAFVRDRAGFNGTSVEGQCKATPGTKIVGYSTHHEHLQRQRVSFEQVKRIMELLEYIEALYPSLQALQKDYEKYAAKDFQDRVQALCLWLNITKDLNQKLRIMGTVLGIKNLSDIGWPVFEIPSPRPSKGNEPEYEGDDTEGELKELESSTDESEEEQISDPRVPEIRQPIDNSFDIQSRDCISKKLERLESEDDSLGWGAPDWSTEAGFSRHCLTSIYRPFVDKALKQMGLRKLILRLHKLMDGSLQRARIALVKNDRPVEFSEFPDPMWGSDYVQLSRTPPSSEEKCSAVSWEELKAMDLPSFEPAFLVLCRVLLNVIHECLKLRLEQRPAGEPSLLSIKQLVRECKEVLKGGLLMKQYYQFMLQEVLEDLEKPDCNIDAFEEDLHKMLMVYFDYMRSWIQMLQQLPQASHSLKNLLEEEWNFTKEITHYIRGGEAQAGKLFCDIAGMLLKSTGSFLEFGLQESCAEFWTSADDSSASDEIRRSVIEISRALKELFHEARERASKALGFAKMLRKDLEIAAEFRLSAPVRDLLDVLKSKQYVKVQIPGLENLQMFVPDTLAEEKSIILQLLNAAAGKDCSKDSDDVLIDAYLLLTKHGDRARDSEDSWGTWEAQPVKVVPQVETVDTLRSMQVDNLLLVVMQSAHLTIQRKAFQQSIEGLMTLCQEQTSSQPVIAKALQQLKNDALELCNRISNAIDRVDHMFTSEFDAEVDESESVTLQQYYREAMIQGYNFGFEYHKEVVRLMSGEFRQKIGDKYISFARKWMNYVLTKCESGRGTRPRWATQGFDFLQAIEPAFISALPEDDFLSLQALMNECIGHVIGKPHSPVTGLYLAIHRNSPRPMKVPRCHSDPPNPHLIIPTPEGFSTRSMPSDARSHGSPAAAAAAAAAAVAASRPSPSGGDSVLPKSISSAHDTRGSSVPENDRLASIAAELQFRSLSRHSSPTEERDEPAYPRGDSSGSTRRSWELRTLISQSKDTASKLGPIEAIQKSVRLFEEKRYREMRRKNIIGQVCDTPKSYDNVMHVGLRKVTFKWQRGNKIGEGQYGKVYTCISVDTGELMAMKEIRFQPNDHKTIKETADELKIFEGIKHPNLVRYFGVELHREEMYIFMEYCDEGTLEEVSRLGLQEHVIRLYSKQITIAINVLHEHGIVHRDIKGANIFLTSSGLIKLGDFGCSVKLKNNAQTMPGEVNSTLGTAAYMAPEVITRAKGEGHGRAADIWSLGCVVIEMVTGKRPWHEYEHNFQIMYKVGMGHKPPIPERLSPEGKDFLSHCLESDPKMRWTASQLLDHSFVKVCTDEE
# Sequence of UniProt P51956 (whole entry, looked up): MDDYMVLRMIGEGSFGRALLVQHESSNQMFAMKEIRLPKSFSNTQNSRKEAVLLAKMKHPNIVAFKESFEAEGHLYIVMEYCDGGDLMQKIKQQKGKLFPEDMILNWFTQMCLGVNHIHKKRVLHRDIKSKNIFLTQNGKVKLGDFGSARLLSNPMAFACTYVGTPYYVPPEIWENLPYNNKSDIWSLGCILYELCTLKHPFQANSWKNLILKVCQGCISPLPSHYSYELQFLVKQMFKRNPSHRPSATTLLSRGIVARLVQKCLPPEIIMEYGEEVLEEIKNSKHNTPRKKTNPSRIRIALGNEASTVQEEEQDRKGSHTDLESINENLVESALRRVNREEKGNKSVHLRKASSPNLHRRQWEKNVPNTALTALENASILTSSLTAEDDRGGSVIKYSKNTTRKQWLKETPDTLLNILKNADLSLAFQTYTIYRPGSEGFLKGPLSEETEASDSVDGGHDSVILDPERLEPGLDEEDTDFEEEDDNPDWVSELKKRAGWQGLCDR
# Sequence of UniProt Q56UN5 (whole entry, looked up): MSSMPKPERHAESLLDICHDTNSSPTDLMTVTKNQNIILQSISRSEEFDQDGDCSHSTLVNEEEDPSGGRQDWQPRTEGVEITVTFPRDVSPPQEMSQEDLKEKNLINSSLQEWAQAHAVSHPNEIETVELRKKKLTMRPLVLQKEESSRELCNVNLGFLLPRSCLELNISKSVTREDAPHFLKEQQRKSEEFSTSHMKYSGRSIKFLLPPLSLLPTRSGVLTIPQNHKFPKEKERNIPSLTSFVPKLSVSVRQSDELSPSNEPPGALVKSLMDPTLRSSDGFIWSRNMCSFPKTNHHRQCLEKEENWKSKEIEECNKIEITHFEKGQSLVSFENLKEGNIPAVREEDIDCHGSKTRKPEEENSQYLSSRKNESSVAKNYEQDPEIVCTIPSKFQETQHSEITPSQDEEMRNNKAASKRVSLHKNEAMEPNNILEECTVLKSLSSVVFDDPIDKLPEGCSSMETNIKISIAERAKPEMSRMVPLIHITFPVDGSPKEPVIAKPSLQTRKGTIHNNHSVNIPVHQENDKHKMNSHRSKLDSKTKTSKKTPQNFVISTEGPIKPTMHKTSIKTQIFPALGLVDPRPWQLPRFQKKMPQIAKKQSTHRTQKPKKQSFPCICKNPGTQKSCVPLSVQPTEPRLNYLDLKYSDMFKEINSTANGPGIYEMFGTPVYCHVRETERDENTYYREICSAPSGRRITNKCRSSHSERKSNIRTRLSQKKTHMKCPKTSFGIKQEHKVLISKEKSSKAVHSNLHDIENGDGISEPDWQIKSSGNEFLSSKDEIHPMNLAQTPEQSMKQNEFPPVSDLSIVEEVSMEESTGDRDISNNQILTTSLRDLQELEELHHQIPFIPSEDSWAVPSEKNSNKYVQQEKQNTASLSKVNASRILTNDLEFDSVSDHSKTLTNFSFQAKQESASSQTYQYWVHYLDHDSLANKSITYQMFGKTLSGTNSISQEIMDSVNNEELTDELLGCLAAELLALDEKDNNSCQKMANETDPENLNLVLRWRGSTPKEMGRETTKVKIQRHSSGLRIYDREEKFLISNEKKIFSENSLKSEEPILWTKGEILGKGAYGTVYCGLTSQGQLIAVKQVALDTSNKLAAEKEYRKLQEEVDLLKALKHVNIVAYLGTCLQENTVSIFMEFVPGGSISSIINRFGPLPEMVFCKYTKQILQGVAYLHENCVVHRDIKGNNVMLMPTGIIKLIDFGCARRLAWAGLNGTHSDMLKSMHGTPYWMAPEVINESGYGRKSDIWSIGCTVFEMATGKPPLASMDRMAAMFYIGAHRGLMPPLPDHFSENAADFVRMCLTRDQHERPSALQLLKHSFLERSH
# Sequence of UniProt Q9UBE8 (whole entry, looked up): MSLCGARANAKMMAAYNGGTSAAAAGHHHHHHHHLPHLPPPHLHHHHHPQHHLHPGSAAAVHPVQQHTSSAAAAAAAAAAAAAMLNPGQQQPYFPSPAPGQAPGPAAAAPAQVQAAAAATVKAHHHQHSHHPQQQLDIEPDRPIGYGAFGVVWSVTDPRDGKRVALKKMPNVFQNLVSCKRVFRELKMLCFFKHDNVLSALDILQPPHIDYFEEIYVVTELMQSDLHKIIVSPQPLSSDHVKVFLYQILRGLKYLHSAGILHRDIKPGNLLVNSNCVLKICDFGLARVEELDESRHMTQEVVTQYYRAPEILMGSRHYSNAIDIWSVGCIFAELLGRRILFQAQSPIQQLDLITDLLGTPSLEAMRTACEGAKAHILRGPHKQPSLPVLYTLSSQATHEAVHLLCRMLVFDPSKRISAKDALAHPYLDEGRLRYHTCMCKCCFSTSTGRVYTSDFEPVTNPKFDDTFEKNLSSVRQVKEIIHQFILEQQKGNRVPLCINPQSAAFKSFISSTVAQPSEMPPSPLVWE

# Sample 1
# Compound: Cn1cnc(Cn2ccc3ccc(CNCc4[nH]c5ccccc5c4[C@H]4NC(=O)c5ccc(O)cc54)cc32)c1
# Read-out: binding
# Action: competitor
# Technique: NanoBRET
# Cell line: HEK293
# KRAS G12C: GTPase KRas (KRAS, Homo sapiens, UniProt P01116, G12C)
# KRAS: GTPase KRas (KRAS, Homo sapiens, UniProt P01116)
target,setting,how to read,normalized BRET
KRAS G12C,"82.2 nM, 2 h",reference: vehicle and 20 µM BI compound,111% and 108% and 116%
KRAS G12C,"2.22 µM, 0.5 h",reference: vehicle and 20 µM BI compound,32.9% and 24.7% and 25.8% and 22.4%
KRAS G12C,"247 nM, 3 h",reference: vehicle and 20 µM BI compound,94.2% and 96.3% and 96.8% and 96%
KRAS,2.22 µM,,11.6% and 14.1% and 10.3% and 10.2%
KRAS G12C,"6.67 µM, 1 h",reference: vehicle and 20 µM BI compound,3.84% and 3.87% and 5.66% and 5.7%
KRAS G12C,"9.14 nM, 2 h",reference: vehicle and 20 µM BI compound,93.8% and 114% and 109% and 102%
KRAS,9.14 nM,,100% and 97% and 98.1% and 87.1%
KRAS G12C,"247 nM, 0.5 h",reference: vehicle and 20 µM BI compound,97.2% and 87.4% and 87%

# Sample 2
# Compound: CN1CCN(C(=O)c2ccc(NC(=O)Nc3ccc(N(C)c4ccnc(Nc5ccc(CS(C)(=O)=O)cc5)n4)cc3)cc2)CC1
target,test,setting,remaining binding
"MAP3K19 (Homo sapiens, UniProt Q56UN5)","binding, competition with immobilised ligand",1 µM,0%
"HIPK2 (Homo sapiens, UniProt Q9H2X6)","binding, competition with immobilised ligand",1 µM,77%
"COQ8A (Homo sapiens, UniProt Q8NI60)","binding, competition with immobilised ligand",1 µM,100%
"BMPR2 (Homo sapiens, UniProt Q13873)",binding,1 µM,56%
"MAP3K4 (Homo sapiens, UniProt Q9Y6R4)","binding, competition with immobilised ligand",1 µM,4%
"PDGFRA (Homo sapiens, UniProt P16234)",DiscoverX cell-free binding,1000 nM,2%
"TSSK1B (Homo sapiens, UniProt Q9BXA7)",binding,1 µM,96%
"MAPK4 (Homo sapiens, UniProt P31152)",binding,1 µM,100%
"CDK11A (Homo sapiens, UniProt Q9UQ88)",binding,1 µM,51%
"NLK (Homo sapiens, UniProt Q9UBE8)","binding, competition with immobilised ligand",1 µM,80%
"NEK2 (Homo sapiens, UniProt P51955)","binding, competition with immobilised ligand",1 µM,89%
"NEK1 (Homo sapiens, UniProt Q96PY6)",binding,1 µM,63%
"CDK18 (Homo sapiens, UniProt Q07002)",binding,1 µM,96%
"GRK2 (Homo sapiens, UniProt P25098)",binding,1 µM,100%

# Sample 3
# SMILES: CCc1ccccc1C(=O)Nc1n[nH]c2c(C)c(F)c(C3C(C#N)=C(C)N(C)C(C)=C3C#N)cc12
# Read-out: cell-free assay
# Technique: competition with immobilised ligand
# Tested at: 1 µM
target,remaining binding
"BMPR1B (Homo sapiens, UniProt O00238)",96%
"Ribosomal protein S6 kinase alpha-2, N-terminal kinase domain (RPS6KA2, Homo sapiens, UniProt Q15349)",0%
"MAP3K4 (Homo sapiens, UniProt Q9Y6R4)",72%
"EPHA8 (Homo sapiens, UniProt P29322)",79%
"NEK3 (Homo sapiens, UniProt P51956)",100%
"BMP2K (Homo sapiens, UniProt Q9NSY1)",100%
"EGFR (Homo sapiens, UniProt P00533, L858R)",93%
"SBK1 (Homo sapiens, UniProt Q52WX2)",100%
"FLT3 (Homo sapiens, UniProt P36888, D835H)",16%
"STK10 (Homo sapiens, UniProt O94804)",100%

# Sample 4
# Target: Tyrosine-protein kinase Fes/Fps (FES, Homo sapiens, UniProt P07332)
# Sequence of UniProt P07332 (whole entry, looked up): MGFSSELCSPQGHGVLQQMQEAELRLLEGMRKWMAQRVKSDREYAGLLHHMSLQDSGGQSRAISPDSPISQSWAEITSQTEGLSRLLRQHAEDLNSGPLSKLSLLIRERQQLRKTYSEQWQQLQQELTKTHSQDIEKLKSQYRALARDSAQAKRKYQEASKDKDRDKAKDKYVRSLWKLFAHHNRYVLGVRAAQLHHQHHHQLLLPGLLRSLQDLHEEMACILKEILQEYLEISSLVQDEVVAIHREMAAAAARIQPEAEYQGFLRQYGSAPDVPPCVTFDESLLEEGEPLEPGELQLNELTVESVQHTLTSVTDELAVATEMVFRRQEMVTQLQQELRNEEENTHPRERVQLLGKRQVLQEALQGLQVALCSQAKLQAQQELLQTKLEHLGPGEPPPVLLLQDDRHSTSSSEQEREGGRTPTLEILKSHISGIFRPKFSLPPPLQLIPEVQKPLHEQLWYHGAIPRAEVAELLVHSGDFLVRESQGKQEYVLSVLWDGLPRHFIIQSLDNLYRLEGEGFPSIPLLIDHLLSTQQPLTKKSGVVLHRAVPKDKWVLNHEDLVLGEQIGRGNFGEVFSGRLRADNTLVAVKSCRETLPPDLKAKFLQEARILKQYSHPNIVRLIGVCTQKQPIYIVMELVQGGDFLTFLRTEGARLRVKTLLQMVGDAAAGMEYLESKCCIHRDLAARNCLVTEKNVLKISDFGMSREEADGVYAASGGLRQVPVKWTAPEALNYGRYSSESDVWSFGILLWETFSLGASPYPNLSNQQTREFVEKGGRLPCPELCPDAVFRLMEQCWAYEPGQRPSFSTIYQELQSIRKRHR
# Read-out: enzyme activity
# Action: inhibitor
# Tested at: 0.5 µM
# Reference: control
SMILES,remaining activity
Cn1nc2c3c(cccc31)C(=O)c1ccccc1-2,94.4%
COc1cc2ncnc(Nc3ccc(O)c(Br)c3)c2cc1OC,94.9%
Ic1cccc(CSc2nnc(-c3ccncc3)o2)c1,98%
Cc1cc2ncc(-c3ccccc3)nc2cc1C,97.3%
Nc1cccc(-c2cc3c(Oc4cccc(O)c4)ncnc3[nH]2)c1,73.8%
N#C/C(=C\c1ccc(O)c(O)c1)C(=O)NCc1ccccc1,101%
CN(C)C[C@H]1CCn2c(c(C3=C(c4cn(C)c5ccccc45)C(=O)NC3=O)c3ccccc32)C1,102%
COc1cc2ncnc(Nc3cccc(Cl)c3)c2cc1OC,104%
O=C(Nc1cccc(Nc2nccc(Nc3cccc(C(F)(F)F)c3)n2)c1)C1CC1,94.3%
c1ccc(-c2cnc(Nc3ccc(OCCN4CCCC4)cc3)s2)cc1,93.2%
Cc1nc2cc3nc(-c4cccs4)cnc3cc2n1C,106%
O=C(NC(NC(=S)Nc1ccc(F)c([N+](=O)[O-])c1)C(Cl)(Cl)Cl)C(c1ccccc1)c1ccccc1 (stereo not shown),104%
CCN(CC)CCNC(=O)c1c(C)[nH]c(/C=C2\C(=O)Nc3ccc(Cl)cc32)c1C,22.1%
COc1cc2c(cc1OC)-c1[nH]nc(Nc3cccc(F)c3)c1C2,95.6%
C[C@@H]1CCN(C(=O)CC#N)C[C@@H]1N(C)c1ncnc2[nH]ccc12,104%
c1ccc(-c2[nH]ncc2-c2ccnc3ccccc23)nc1,111%
O=C1C(Cl)=C(N2C(=O)CCC2=O)C(=O)c2ccccc21,97.5%
CCN(CC)C(=O)c1ccc(Nc2nc(OCC3CCCCC3)c3[nH]cnc3n2)cc1,63.2%
N#Cc1c(NC(=O)c2cccc3ccccc23)sc2c1CCCC2,102%
Cc1cn(-c2cc(NC(=O)c3ccc(C)c(Nc4nccc(-c5cccnc5)n4)c3)cc(C(F)(F)F)c2)cn1,95.9%
CN([C@@H](Cc1ccc(OS(=O)(=O)c2cccc3cnccc23)cc1)C(=O)N1CCN(c2ccccc2)CC1)S(=O)(=O)c1cccc2cnccc12,97.7%
O=C1c2ccccc2-c2n[nH]c3cccc1c23,64.3%
CCOc1nc(NC(=O)Cc2cc(OC)ccc2OC)cc(N)c1C#N,91%

# A few entries again (sample 4):
SMILES,remaining activity
COc1cc2c(cc1OC)-c1[nH]nc(Nc3cccc(F)c3)c1C2,95.6%
C[C@@H]1CCN(C(=O)CC#N)C[C@@H]1N(C)c1ncnc2[nH]ccc12,104%
c1ccc(-c2[nH]ncc2-c2ccnc3ccccc23)nc1,111%
